Assay results from different studies.
Compare with care: the assays were run in different laboratories. Values joined by “and” are separate records of one study, mostly repeats; a detail may differ. ± marks the error that the study gave.
Polyprotein P1234 nsP2 protease domain: Polyprotein P1234, nsP2 protease domain (Chikungunya virus, UniProt Q5XXP4)
UniProt Q5XXP4, sequence (whole entry, looked up): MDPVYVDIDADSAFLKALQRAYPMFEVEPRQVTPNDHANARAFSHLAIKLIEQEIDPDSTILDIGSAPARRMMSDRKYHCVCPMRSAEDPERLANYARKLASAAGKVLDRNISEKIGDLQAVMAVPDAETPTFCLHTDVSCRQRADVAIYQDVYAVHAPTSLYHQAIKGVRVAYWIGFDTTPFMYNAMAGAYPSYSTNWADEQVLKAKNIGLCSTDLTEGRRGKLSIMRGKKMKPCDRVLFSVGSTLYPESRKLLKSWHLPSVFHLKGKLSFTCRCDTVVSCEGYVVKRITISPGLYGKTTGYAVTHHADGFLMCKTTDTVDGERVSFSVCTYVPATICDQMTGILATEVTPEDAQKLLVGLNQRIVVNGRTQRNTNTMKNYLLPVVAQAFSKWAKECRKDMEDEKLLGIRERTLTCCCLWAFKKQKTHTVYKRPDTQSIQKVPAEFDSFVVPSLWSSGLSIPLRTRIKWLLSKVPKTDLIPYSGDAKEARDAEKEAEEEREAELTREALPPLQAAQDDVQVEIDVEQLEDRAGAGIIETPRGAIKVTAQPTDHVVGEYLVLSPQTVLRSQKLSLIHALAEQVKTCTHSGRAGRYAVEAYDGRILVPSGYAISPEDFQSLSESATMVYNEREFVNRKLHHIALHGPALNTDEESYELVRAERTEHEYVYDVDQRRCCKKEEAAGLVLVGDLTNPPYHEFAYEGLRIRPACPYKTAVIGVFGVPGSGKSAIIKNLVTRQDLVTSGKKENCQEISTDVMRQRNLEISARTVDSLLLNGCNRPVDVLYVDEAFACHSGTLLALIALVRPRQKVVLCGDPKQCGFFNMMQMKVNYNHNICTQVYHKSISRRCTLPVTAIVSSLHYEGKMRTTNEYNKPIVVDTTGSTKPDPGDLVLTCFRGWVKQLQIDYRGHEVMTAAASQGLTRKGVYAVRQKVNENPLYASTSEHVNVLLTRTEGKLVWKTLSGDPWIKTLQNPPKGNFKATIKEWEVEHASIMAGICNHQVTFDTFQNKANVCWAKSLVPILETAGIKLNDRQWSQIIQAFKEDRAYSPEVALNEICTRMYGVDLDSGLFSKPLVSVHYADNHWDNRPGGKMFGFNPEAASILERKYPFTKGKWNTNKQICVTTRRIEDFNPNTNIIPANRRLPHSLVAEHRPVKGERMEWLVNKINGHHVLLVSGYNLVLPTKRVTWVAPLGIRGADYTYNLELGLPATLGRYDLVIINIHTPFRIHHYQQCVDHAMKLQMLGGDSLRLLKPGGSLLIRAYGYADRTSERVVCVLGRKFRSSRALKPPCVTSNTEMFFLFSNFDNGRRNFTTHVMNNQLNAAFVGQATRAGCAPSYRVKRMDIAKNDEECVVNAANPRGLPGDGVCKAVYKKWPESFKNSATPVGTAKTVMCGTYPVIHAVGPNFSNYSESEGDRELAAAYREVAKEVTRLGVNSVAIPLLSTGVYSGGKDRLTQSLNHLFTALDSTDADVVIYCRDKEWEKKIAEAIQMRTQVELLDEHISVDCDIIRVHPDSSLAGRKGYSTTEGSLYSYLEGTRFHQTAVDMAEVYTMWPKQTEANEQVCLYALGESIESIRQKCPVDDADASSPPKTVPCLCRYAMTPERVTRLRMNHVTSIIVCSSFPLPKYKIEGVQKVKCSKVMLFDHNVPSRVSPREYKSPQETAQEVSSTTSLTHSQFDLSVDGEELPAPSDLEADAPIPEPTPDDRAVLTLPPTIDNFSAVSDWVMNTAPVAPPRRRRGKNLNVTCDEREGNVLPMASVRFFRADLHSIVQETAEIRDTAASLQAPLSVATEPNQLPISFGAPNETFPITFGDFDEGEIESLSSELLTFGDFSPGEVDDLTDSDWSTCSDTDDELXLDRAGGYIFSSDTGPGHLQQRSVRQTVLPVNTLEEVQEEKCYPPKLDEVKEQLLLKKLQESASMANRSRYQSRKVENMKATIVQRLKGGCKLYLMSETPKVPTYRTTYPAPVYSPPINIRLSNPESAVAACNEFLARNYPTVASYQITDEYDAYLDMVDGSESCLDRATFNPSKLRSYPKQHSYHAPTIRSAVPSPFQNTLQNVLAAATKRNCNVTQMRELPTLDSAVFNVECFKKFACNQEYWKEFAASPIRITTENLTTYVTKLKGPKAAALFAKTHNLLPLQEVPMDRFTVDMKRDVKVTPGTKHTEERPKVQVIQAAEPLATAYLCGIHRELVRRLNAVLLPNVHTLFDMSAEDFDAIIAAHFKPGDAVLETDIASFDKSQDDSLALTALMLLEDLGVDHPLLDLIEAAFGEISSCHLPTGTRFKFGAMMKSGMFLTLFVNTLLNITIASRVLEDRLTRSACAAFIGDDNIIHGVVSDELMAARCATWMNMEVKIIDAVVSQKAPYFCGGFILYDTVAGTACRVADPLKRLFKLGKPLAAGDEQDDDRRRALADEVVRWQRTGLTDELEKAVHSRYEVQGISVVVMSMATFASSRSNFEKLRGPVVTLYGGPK
HLA class I histocompatibility antigen, A alpha chain allele A*11:01: HLA class I histocompatibility antigen, A alpha chain, allele A*11:01 (Homo sapiens, UniProt P04439)
HLA class I histocompatibility antigen, B alpha chain: HLA class I histocompatibility antigen, B alpha chain (Homo sapiens, UniProt P01889)
nanI: Sialidase (nanI, Clostridium perfringens, UniProt A0A0H2YQR1)
OPG149: Resolvase OPG149 (OPG149, Vaccinia virus, UniProt Q80HV3)
UniProt Q81Y92, sequence (whole entry, looked up): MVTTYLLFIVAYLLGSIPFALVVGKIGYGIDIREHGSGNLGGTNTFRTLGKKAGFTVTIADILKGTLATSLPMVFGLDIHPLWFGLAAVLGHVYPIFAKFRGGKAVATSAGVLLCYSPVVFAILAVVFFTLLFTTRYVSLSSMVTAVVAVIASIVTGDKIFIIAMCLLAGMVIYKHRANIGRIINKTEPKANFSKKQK
UniProt P04756, sequence (whole entry, looked up): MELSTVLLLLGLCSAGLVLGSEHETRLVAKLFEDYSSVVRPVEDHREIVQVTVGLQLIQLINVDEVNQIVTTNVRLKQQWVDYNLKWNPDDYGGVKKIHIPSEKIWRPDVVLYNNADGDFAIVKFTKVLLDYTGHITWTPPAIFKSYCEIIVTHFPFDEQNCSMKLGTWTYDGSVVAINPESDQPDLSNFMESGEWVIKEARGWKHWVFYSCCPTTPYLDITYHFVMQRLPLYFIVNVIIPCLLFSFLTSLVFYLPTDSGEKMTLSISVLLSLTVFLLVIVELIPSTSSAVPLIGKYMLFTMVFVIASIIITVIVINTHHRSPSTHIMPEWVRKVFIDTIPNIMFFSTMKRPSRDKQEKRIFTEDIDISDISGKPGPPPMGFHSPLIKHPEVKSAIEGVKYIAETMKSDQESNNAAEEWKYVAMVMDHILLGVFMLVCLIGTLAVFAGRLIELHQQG
UniProt P11712, sequence (whole entry, looked up): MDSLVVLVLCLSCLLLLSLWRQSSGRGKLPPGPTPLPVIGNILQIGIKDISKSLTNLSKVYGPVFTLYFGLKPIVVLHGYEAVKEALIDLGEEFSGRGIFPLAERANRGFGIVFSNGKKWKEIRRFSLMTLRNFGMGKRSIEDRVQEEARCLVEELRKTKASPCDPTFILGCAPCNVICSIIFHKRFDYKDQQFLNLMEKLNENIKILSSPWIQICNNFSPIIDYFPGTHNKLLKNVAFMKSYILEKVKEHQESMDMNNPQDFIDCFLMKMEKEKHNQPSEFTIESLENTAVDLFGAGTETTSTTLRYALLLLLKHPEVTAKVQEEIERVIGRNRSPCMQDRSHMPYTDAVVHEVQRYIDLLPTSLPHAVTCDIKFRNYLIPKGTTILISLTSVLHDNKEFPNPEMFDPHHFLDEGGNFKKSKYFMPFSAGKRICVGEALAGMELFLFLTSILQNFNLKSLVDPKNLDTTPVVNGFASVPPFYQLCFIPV
UniProt P02716, sequence (whole entry, looked up): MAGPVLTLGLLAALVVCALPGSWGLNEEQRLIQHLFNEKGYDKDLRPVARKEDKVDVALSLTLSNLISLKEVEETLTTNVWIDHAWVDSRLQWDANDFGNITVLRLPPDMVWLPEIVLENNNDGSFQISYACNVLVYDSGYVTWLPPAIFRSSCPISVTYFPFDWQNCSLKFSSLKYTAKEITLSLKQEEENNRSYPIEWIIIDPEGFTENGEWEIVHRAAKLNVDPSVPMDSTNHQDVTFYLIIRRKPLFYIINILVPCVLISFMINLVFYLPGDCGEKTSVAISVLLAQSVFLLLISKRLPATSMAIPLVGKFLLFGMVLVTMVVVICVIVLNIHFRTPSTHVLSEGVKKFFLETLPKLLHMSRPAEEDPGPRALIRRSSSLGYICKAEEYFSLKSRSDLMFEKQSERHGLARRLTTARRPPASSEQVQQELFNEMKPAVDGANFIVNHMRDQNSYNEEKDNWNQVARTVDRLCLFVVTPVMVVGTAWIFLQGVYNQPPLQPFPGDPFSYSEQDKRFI
UniProt P20782, sequence (whole entry, looked up): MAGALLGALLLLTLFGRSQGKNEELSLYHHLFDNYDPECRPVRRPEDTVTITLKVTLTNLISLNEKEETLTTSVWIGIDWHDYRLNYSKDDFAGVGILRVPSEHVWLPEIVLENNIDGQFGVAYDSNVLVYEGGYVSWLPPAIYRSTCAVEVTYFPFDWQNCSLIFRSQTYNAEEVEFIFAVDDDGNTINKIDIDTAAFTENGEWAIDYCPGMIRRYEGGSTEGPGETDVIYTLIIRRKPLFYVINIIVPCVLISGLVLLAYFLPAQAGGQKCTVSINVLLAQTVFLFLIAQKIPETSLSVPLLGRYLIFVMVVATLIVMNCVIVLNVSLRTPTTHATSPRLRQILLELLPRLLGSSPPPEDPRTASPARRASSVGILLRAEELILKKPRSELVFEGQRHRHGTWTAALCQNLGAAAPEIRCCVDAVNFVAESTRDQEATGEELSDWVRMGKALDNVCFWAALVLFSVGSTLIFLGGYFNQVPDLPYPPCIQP

O=C(CCCCCCCCCCOc1ccccc1)CP(=O)(O)O — IC50 (Glycerol-3-phosphate acyltransferase 3 (plsY3, Bacillus anthracis, UniProt Q81Y92); inhibitor): 200000 nM
oseltamivir carboxylate — IC50 (neuraminidase (Influenza A virus, UniProt V5JG42); enzyme activity, inhibitor; A(H9N2); median over viruses): 0.19 ± 0.02 nM
Cn1cc(-c2ncc(C(=O)NCC=CS(C)(=O)=O)s2)cn1 — IC50 (Polyprotein P1234 nsP2 protease domain; enzyme activity, inhibitor, FRET; 90 min, 30 min preincubation): 1200 nM and < 1500 nM
CC(C)[C@H](NC(=O)[C@H](CCCCN)NC(=O)[C@H](CCCNC(=N)N)NC(=O)[C@H](Cc1ccccc1)NC(=O)[C@H](CCC(=O)O)NC(=O)[C@@H](N)Cc1ccc(O)cc1)C(=O)N[C@@H](CCCCN)C(=O)N[C@@H](CO)C(=O)N[C@@H](Cc1ccc(O)cc1)C(=O)O — IC50 (HLA class I histocompatibility antigen, B alpha chain, allele B*44:03 (Homo sapiens, UniProt P01889); biochemical): 6.9 nM
CCC(C(=O)Nc1cc(NC2CCOCC2)ccc1C)n1cc(Br)cc2nc(SCc3ccc(F)cc3)nc1-2 (centres unmarked) — IC50 (Replicase polyprotein 1ab, papain-like protease (rep, Middle East respiratory syndrome-related coronavirus, UniProt K9N7C7); enzyme activity, inhibitor): > 100000 nM
CC(C)C[C@H](NC(=O)[C@H](CO)NC(=O)[C@@H](NC(=O)[C@@H](N)Cc1ccc(O)cc1)[C@@H](C)O)C(=O)N[C@@H](CC(=O)O)C(=O)N[C@H](C(=O)N[C@@H](Cc1ccc(O)cc1)C(=O)NCC(=O)N[C@@H](CO)C(=O)O)C(C)C — IC50 (HLA class I histocompatibility antigen, A alpha chain allele A*11:01; biochemical): 231 nM
Cc1ccccc1NC(=O)C(C)n1c(SCc2ccc(F)cc2)nc2cccnc21 (centres unmarked) — IC50 (Replicase polyprotein 1ab, papain-like protease (rep, Middle East respiratory syndrome-related coronavirus, UniProt K9N7C7); enzyme activity, inhibitor): > 100000 nM
CC[C@H](C)[C@H](NC(=O)[C@H](C)NC(=O)[C@H](Cc1ccccc1)NC(=O)[C@H](CCCNC(=N)N)NC(=O)[C@@H](NC(=O)[C@H](C)NC(=O)[C@@H]1CCCN1C(=O)[C@H](CCCCN)NC(=O)[C@@H]1CCCN1C(=O)[C@@H](N)CCCCN)C(C)C)C(=O)O — IC50 (HLA class I histocompatibility antigen, B alpha chain; biochemical): 0.18 nM
CCC(C(=O)Nc1cc(NC2CCNCC2)ccc1C)n1cc(Br)cc2nc(SCc3ccc(F)cc3)nc1-2 (centres unmarked) — IC50 (Replicase polyprotein 1ab, papain-like protease (rep, Middle East respiratory syndrome-related coronavirus, UniProt K9N7C7); enzyme activity, inhibitor): > 100000 nM
C=CC(=O)N1CCC(C2CC2)C1C(=O)O (centres unmarked) — IC50 (Polyprotein P1234 nsP2 protease domain; protease activity, inhibitor, FRET; 90 min, 30 min preincubation): > 200000 nM
CC(C)(C)CC(=O)N[C@H]1[C@H]([C@H](O)[C@H](O)CO)OC(C(=O)O)=C[C@@H]1O — IC50 (nanI; enzyme activity, inhibitor): 90000 nM
CCC(C(=O)Nc1cc(NC2CNC2)ccc1C)n1cc(F)cc2nc(SCc3ccc(F)cc3)nc1-2 (centres unmarked) — IC50 (Replicase polyprotein 1ab, papain-like protease (rep, Middle East respiratory syndrome-related coronavirus, UniProt K9N7C7); enzyme activity, inhibitor): > 100000 nM
O=C(N1CCC2(CC1)C[C@@H](CN1CCCCS1(=O)=O)CCO2)C1(c2ccccc2)CCCC1 — IC50 (Polyprotein P1234, nsP2 (Chikungunya virus, UniProt Q8JUX6); nsP2 RNA unwinding, inhibitor, FRET strand separation): 26000 nM
CC(=O)N[C@H]1[C@H]([C@H](O)[C@H](O)CO)O[C@](OP(=O)(O)OC[C@H]2O[C@@H](n3ccc(N)nc3=O)[C@H](O)[C@@H]2O)(C(=O)O)C[C@@H]1O — IC50 (Spike glycoprotein, with ACE2 (Severe acute respiratory syndrome coronavirus 2, UniProt P0DTC2); binding to human ACE2, inhibitor; SARS-CoV-2): 3.2 nM
CS(=O)(=O)c1cc(C#N)cc(NC(=O)CCl)c1 — IC50 (Polyprotein P1234 nsP2 protease domain; enzyme activity, inhibitor, FRET; 90 min, 30 min preincubation): 4500 ± 2300 nM
CC(C)C[C@H](NC(=O)[C@H](Cc1ccccc1)NC(=O)[C@H](CO)NC(=O)[C@H](CC(N)=O)NC(=O)[C@H](CCCCN)NC(=O)[C@H](Cc1ccccc1)NC(=O)[C@@H](NC(=O)[C@H](C)N)C(C)C)C(=O)NCC(=O)N[C@@H](CCCCN)C(=O)O — IC50 (HLA class I histocompatibility antigen, A alpha chain allele A*11:01; biochemical): 1.5 nM
CCCCNC(=O)N[C@H]1[C@H]([C@H](O)[C@H](O)CO)OC(C(=O)O)=C[C@@H]1O — IC50 (nanI; enzyme activity, inhibitor): 240000 nM
C=CS(=O)(=O)CCC(=O)Nc1c(C)nsc1C — IC50 (Polyprotein P1234 nsP2 protease domain; protease activity, inhibitor, FRET; 90 min, 30 min preincubation): 17000 ± 1000 nM
CC[C@H](C)[C@H](NC(=O)[C@@H](NC(=O)[C@H](C)NC(=O)[C@H](Cc1ccc(O)cc1)NC(=O)[C@H](Cc1c[nH]cn1)NC(=O)[C@H](CCCNC(=N)N)NC(=O)[C@@H]1CCCN1C(=O)[C@@H](N)Cc1c[nH]cn1)[C@@H](C)O)C(=O)N[C@@H](CCSC)C(=O)O — IC50 (HLA class I histocompatibility antigen, B alpha chain; biochemical): 12 nM
CC(C)(C)CN[C@H]1[C@H]([C@H](O)[C@H](O)CO)OC(C(=O)O)=C[C@@H]1O — IC50 (nanI; enzyme activity, inhibitor): 24000 nM
Cn1cnc(Cn2c(=O)[nH]/c(=N\c3cc4cn(C)nc4cc3Cl)n(Cc3cc(F)c(F)cc3F)c2=O)n1 — IC50 (Cytochrome P450 2C9 (CYP2C9, Homo sapiens, UniProt P11712); inhibitor; human liver microsomes; 30 min preincubation, preincubation without NADPH, added: diclofenac 12 µM): > 100000 nM
O=C1Cc2cc(-c3ccco3)ccc2C(=O)N1O — IC50 (OPG149): 410 nM
COc1cc2c3cc1Oc1cc(ccc1O)C[C@@H]1c4c(cc(OC)c(O)c4Oc4ccc(cc4)C[C@@H]3N(C)CC2)CC[N+]1(C)C — IC50 (Chrnd/Chrna1/Chrne (Mus musculus, UniProt P02716+P04756+P20782); endplate current amplitude, two-electrode voltage clamp; mouse given myasthenia patient IgG 2 d, mouse hemidiaphragm; membrane potential -80 mV, added: paraoxon): 186 nM
C=CS(=O)(=O)CCC(=O)Nc1nn(C2CCCCC2)cc1C — IC50 (Polyprotein P1234 nsP2 protease domain; protease activity, inhibitor, FRET; 90 min, 30 min preincubation): 24000 ± 3000 nM
CC[C@H](C)[C@H](NC(=O)[C@H](Cc1ccccc1)NC(=O)[C@@H]1CCCN1C(=O)[C@H](Cc1c[nH]cn1)NC(=O)[C@H](CC(N)=O)NC(=O)[C@@H](NC(=O)[C@H](Cc1ccc(O)cc1)NC(=O)[C@@H](N)C(C)C)[C@@H](C)CC)C(=O)N[C@@H](Cc1ccc(O)cc1)C(=O)O — IC50 (HLA class I histocompatibility antigen, A alpha chain, allele A*29:02 (Homo sapiens, UniProt P04439); biochemical): 6.5 nM
CC(C)C[C@H](NC(=O)[C@H](Cc1ccccc1)NC(=O)[C@H](CO)NC(=O)[C@@H]1CCCN1C(=O)[C@H](CC(=O)O)NC(=O)[C@@H](NC(=O)[C@@H](NC(=O)[C@@H](N)Cc1c[nH]cn1)[C@@H](C)O)[C@@H](C)O)C(=O)NCC(=O)N[C@@H](CCCNC(=N)N)C(=O)O — IC50 (HLA class I histocompatibility antigen, A alpha chain (Homo sapiens, UniProt P04439); binding, competitor): 10300 nM
Cc1ccc(N)cc1C(=O)N[C@H](C)c1cccc2ccccc12 — IC50 (Replicase polyprotein 1ab, papain-like protease (rep, Middle East respiratory syndrome-related coronavirus, UniProt K9N7C7); enzyme activity, inhibitor): > 100000 nM
CC(=O)N[C@H]1[C@H]([C@H](O)[C@H](O)CO)OC(C(=O)O)=C[C@@H]1N=C(N)N — IC50 (neuraminidase (Influenza A virus, UniProt G1FHY4); concentration not given): 1.26 nM
O=C1c2ccccc2C(c2ccccc2F)C(=O)N1O (centres unmarked) — IC50 (OPG149): 2600 nM
CC[C@H](C)[C@H](NC(=O)[C@@H](NC(=O)[C@H](Cc1ccccc1)NC(=O)[C@H](CCCNC(=N)N)NC(=O)[C@H](CC(N)=O)NC(=O)[C@@H]1CCCN1C(=O)[C@H](CC(N)=O)NC(=O)[C@H](CCCCN)NC(=O)[C@H](C)N)C(C)C)C(=O)O — IC50 (HLA class I histocompatibility antigen, B alpha chain; biochemical): 291 nM
Cc1ccc2[nH]ncc2c1B(O)O — IC50 (Polyprotein P1234 nsP2 protease domain; protease activity, inhibitor, FRET; 90 min, 30 min preincubation): > 200000 nM
CCC(CC)O[C@@H]1C=C(C(=O)O)C[C@H](N)[C@H]1NC(C)=O — IC50 (Neuraminidase (Influenza A virus, UniProt L0MUX9); enzyme activity, inhibitor; swine influenza A virus, N2 subtypes average): 0.17 nM
CCC(C(=O)Nc1cc(NC2CCNCC2)ccc1C)n1cc(Cl)cc2nc(SCc3ccc(F)cc3)nc1-2 (centres unmarked) — IC50 (Replicase polyprotein 1ab, papain-like protease (rep, Middle East respiratory syndrome-related coronavirus, UniProt K9N7C7); enzyme activity, inhibitor): > 100000 nM
CCCCCc1cc(O)c2c(c1)OC(C)(C)c1ccc(C)cc1-2 — IC50 (Scn10a (Mus musculus, UniProt Q6QIY3); ion current, inhibitor, patch clamp): ~16000 nM
CCC(C(=O)Nc1ccccc1C)n1cccc2nc(SCc3cccc(F)c3)nc1-2 (centres unmarked) — IC50 (Replicase polyprotein 1ab, papain-like protease (rep, Severe acute respiratory syndrome-related coronavirus, UniProt P0C6X7); enzyme activity): 3960 ± 150 nM
CCc1c(C(=O)C(N)=O)c2c(OCC(=O)O)cccc2n1Cc1ccccc1 — IC50 (Daboia russelii venom PLA2; enzyme activity, inhibitor; venom from Maharashtra, added: NOB substrate): 1660 nM
CC[C@H](C)[C@H](NC(=O)[C@H](CCCNC(=N)N)NC(=O)[C@@H]1CCCN1C(=O)[C@H](C)N)C(=O)N[C@H](C(=O)N[C@@H](Cc1ccccc1)C(=O)NCC(=O)NCC(=O)N1CCC[C@H]1C(=O)O)[C@@H](C)O — IC50 (HLA class I histocompatibility antigen, B alpha chain; binding, competitor): 1960 nM
CCC(C(=O)Nc1ccccn1)n1cccc2nc(SCc3ccc(F)cc3)nc1-2 (centres unmarked) — IC50 (Replicase polyprotein 1ab, papain-like protease (rep, Middle East respiratory syndrome-related coronavirus, UniProt K9N7C7); enzyme activity, inhibitor): > 100000 nM
